Measurements of several laboratories.
Lines come from different studies, so protocols differ.
Target: Dual specificity mitogen-activated protein kinase kinase 3 (MAP2K3, Homo sapiens, UniProt P46734)
Residues used in one study (P46734 1-347): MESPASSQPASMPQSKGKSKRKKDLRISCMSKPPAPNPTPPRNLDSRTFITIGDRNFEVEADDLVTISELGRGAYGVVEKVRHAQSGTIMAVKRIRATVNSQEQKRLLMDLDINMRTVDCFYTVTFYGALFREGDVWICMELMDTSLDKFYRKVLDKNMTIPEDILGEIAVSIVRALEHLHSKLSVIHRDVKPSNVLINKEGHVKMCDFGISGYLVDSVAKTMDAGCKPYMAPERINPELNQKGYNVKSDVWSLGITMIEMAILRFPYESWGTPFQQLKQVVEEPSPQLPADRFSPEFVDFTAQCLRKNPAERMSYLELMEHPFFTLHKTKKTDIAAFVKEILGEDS

SMILES = CCn1cc(C(=O)O)c(=O)c2c(N)c(F)c(NC3CCCCC3)cc21; test = kinase activity; conditions = 0.1 µM, with: ATP at Km; quantity = inhibition; value = -15.3%
SMILES = Nc1ncc(-c2cc(-c3cnn(CC(F)(F)F)c3)ncc2F)nc1C(=O)NC1CNCC(F)C1 (stereo not shown); test = enzyme activity; conditions = 1 µM; how to read = relative to: DMSO control; quantity = remaining activity; value = 117%
SMILES = CC(C)=CC1OC(C)(C)C2C=C3C(=O)C(Cl)=CC(O)C3C3C(O)C4OC4C(=O)C132 (stereo not shown); test = cell-free assay, competition with immobilised ligand; conditions = 10 µM; quantity = remaining binding; value = 73%
SMILES = CN1CC[C@@H](COc2cnc(C#N)cc2-c2ccn3nc(NC(=O)C4CC4)cc3c2)C1; test = enzyme activity, inhibitor; conditions = 1 µM; quantity = inhibition; value = -3%
SMILES = Cc1ccc(-c2c(/C=C(\C#N)C(=O)NC(C)C)n(CCCO)c3ncnc(N)c23)cc1; test = cell-free assay, competition with immobilised ligand; conditions = 1 µM; quantity = remaining binding; value = 93%
SMILES = CNC(=O)C1CCN(c2cc(C)c(F)cc2NC(=O)c2ccc(-c3cc(O)ccc3C)c(C)c2)CC1; test = binding, competition with immobilised ligand; conditions = 1 µM; quantity = remaining binding; value = 99%
SMILES = COc1cc(Nc2nc(C)cc(-c3cnn4nc(OC)ccc34)n2)cc(C(F)(F)F)c1; test = inhibitor; conditions = 1 µM, MEK3; how to read = relative to: control; quantity = remaining activity; value = 86%
SMILES = Cc1c[nH]c2nccc(-c3ccc(C(=O)N[C@@H]4c5c(F)cc(C(F)F)cc5C[C@@H]4O)cn3)c12; test = binding, competition with immobilised ligand; conditions = 3 µM; quantity = remaining binding; value = 4.5%
SMILES = Nc1ncc2c(n1)-c1c([nH]c3ccc(C4=CCOCC4)cc13)CCC2; test = binding, competition with immobilised ligand; conditions = 1 µM; quantity = remaining binding; value = 84%
SMILES = Cc1cccc(O[C@H]2CCC[C@@H](C(C)CNCc3ccncc3)C2)c1 (relative stereo); test = enzyme activity, inhibitor; conditions = 10 µM; quantity = inhibition; value = -4%
